Assay results of several laboratories.
Each numbered part is a random draw from the data of one study; scales do not carry over between parts.
UniProt P23458, sequence (whole entry, looked up): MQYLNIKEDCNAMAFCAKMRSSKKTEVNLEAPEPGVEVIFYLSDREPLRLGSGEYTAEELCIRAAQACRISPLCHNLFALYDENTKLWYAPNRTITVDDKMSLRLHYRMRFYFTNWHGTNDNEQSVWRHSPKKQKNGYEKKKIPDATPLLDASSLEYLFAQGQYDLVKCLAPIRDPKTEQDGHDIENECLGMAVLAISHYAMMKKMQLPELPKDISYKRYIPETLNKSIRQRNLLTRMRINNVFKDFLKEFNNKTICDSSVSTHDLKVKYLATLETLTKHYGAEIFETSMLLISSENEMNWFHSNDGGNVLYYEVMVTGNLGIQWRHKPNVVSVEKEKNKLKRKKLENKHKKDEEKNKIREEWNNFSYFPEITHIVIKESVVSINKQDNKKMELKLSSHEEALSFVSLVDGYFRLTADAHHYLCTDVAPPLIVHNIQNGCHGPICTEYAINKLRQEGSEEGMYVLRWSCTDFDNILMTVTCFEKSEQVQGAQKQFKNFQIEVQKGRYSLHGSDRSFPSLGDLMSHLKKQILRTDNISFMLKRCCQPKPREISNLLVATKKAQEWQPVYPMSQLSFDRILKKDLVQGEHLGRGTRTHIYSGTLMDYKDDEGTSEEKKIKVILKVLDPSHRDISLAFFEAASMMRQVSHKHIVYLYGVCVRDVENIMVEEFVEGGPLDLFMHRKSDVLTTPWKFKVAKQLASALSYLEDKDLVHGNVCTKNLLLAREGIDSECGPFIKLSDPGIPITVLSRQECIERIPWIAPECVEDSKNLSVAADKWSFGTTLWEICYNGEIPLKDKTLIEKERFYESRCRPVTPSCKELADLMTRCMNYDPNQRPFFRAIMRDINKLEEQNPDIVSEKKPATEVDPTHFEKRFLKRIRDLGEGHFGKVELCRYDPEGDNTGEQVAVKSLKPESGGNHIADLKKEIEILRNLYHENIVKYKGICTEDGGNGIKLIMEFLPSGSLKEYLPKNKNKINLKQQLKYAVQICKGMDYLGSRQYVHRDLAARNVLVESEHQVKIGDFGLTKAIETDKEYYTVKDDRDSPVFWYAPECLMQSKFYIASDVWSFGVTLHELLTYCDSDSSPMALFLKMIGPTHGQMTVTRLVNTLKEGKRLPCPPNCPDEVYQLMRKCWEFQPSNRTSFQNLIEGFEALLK
UniProt O75582, sequence (whole entry, looked up): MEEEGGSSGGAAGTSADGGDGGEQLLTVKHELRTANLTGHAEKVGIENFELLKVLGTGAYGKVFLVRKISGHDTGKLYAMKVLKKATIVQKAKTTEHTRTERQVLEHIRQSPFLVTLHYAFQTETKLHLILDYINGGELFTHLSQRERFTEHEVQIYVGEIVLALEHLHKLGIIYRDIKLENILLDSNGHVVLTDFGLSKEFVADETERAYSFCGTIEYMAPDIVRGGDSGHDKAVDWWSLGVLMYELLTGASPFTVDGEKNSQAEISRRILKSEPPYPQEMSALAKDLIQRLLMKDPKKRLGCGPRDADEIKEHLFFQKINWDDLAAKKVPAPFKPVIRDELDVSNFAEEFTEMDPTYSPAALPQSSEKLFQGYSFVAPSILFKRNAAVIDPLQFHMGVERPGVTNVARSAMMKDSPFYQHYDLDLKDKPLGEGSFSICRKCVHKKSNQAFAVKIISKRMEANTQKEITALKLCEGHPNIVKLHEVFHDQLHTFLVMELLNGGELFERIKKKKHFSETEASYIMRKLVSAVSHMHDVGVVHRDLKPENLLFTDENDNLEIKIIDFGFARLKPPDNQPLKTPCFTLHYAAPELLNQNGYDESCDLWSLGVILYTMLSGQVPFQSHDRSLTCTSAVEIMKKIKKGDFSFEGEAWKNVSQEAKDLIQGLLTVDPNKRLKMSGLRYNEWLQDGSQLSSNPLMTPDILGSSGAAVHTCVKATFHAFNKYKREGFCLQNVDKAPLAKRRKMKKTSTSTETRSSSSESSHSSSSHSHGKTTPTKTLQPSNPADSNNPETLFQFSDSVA
UniProt Q06418, sequence (whole entry, looked up): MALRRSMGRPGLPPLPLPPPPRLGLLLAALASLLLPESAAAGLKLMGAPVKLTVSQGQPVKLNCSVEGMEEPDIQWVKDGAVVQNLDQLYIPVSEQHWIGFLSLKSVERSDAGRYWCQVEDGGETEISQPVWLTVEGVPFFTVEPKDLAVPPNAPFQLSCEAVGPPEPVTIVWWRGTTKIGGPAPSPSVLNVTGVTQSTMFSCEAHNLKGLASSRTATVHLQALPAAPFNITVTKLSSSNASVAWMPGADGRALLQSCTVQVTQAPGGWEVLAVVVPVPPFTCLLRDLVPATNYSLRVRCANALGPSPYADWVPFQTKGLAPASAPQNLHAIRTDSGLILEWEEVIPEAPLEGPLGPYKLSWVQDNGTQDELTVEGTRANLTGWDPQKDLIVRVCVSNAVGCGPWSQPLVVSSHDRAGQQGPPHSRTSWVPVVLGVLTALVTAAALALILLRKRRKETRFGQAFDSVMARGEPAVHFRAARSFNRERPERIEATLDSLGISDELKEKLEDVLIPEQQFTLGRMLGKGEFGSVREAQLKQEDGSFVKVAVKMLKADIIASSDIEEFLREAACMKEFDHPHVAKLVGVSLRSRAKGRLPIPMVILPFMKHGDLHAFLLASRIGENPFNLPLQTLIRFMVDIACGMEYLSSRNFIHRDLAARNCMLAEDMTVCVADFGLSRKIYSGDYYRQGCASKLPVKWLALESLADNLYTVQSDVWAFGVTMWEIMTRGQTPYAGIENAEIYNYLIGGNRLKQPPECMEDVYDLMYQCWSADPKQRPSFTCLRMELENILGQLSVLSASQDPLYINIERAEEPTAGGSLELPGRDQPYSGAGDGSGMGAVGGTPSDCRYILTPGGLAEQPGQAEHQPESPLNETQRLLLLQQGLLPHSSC
UniProt Q9Y2K2, sequence (whole entry, looked up): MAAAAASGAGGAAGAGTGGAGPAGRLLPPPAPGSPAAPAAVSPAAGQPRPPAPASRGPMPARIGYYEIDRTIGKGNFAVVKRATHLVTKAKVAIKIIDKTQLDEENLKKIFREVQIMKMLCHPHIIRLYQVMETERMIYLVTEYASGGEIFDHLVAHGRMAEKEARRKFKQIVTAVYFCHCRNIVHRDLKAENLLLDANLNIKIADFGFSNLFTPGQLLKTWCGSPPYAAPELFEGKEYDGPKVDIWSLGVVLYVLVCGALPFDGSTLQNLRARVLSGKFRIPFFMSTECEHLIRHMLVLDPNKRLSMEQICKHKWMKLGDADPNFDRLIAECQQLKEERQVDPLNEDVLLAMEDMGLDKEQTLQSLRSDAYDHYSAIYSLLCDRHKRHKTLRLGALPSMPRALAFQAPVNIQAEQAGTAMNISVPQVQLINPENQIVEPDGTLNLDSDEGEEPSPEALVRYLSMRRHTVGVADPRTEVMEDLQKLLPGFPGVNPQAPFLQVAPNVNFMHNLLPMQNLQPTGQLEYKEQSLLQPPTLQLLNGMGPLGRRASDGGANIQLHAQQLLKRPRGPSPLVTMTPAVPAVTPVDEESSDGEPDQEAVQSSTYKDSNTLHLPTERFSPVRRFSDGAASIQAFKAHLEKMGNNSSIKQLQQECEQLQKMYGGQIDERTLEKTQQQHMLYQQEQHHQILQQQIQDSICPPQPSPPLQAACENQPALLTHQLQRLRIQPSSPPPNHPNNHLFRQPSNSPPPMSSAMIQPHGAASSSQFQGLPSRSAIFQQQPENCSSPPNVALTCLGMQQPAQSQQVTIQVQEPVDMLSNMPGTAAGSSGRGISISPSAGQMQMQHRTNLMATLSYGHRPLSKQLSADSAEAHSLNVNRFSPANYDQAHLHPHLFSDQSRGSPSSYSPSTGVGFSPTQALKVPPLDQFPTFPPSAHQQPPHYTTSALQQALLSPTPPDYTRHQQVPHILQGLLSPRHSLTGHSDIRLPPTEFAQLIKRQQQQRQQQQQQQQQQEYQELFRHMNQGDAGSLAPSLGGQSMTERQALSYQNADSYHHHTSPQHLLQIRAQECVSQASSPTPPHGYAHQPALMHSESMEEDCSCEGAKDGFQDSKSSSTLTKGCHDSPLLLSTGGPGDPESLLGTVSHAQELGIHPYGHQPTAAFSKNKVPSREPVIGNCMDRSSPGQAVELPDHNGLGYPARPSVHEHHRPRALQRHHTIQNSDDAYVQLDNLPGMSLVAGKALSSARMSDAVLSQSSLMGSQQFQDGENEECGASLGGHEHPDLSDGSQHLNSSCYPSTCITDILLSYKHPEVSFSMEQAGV
UniProt P42680, sequence (whole entry, looked up): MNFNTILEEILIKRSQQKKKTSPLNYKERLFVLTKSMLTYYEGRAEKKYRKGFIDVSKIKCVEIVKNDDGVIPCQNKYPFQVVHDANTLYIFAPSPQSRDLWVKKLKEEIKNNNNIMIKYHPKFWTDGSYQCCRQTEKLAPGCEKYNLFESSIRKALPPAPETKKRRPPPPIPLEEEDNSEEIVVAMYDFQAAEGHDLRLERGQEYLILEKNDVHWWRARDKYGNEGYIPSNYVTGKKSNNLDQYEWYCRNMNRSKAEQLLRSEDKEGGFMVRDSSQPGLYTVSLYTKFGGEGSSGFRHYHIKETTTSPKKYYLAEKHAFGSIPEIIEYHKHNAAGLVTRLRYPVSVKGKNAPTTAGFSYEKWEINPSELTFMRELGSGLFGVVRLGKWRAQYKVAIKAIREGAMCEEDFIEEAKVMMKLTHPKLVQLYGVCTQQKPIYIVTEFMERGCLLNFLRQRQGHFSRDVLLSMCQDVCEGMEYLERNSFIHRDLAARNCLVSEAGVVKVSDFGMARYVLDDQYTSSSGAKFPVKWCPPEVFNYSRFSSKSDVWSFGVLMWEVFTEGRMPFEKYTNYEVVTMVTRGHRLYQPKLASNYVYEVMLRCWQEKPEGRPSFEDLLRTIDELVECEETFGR

Set 1 — observed: enzyme activity; mode: inhibitor; concentration: 0.5 µM; baseline: control
Compound: O=C1NC(=O)C(c2c[nH]c3ccccc23)=C1c1c[nH]c2ccccc12
| target | remaining activity |
| --- | --- |
| MUSK (Homo sapiens, UniProt O15146) | 76.4% |
| CSNK1E (Homo sapiens, UniProt P49674) | 92.4% |
| CAMKK1 (Homo sapiens, UniProt Q8N5S9) | 114% |
| SGK2 (Homo sapiens, UniProt Q9HBY8) | 90.5% |
| TYRO3 (Homo sapiens, UniProt Q06418) | 101% |
| PAK6 (Homo sapiens, UniProt Q9NQU5) | 92.4% |
| SRPK1 (Homo sapiens, UniProt Q96SB4) | 89.4% |
| IGF1R (Homo sapiens, UniProt P08069) | 80% |
| EPHA2 (Homo sapiens, UniProt P29317) | 91.6% |
| CSNK1D (Homo sapiens, UniProt P48730) | 95.7% |
| FLT1 (Homo sapiens, UniProt P17948) | 53.9% |
| RPS6KA3 (Homo sapiens, UniProt P51812) | 46.6% |
| PRKCZ (Homo sapiens, UniProt Q05513) | 96.2% |
| CLK1 (Homo sapiens, UniProt P49759) | 111% |
| CAMK1 (Homo sapiens, UniProt Q14012) | 105% |
| CLK2 (Homo sapiens, UniProt P49760) | 46.7% |
| PAK1 (Homo sapiens, UniProt Q13153) | 83.5% |
| MAP3K20 (Homo sapiens, UniProt Q9NYL2) | 107% |
| SIK2 (Homo sapiens, UniProt Q9H0K1) | 102% |
| PRKCQ (Homo sapiens, UniProt Q04759) | 33.8% |
| Cyclin-dependent kinase 2, with cyclin E (CDK2, Homo sapiens, UniProt P24941) | 71.4% |
| JAK1 (Homo sapiens, UniProt P23458) | 101% |
| TEC (Homo sapiens, UniProt P42680) | 145% |

Set 2 — cell line: HaCaT; concentration: 100 µM; time: 18 h
| SMILES | viability [%] |
| --- | --- |
| O=c1ccc2ccc(O)c(O)c2o1 | 75.8 |
| COC(=O)C1=CO[C@@H](O[C@@H]2O[C@H](CO)[C@@H](O)[C@H](O)[C@H]2O)[C@@H]2C(CO)=CC[C@H]12 | 111 |
| COC(=O)C1=C(C)NC(C)=C(C(=O)OCC(C)C)C1c1ccccc1[N+](=O)[O-] (centres unmarked) | 27.3 |
| N[C@@H](Cc1ccc(O)c(O)c1)C(=O)O | 125 |
| O=C(NC(Cc1cc(=O)[nH]c2ccccc12)C(=O)O)c1ccc(Cl)cc1 (centres unmarked) | 114 |
| Cc1noc(NS(=O)(=O)c2ccc(N)cc2)c1C | 78 |
| CN1CCCCC1CCN1c2ccccc2Sc2ccc([S+](C)[O-])cc21 (centres unmarked) | 91.6 |
| COc1cc2c(cc1O)CC[C@@H]1[C@@H]2CC[C@]2(C)[C@@H](O)CC[C@@H]12 | 59 |
| COC(=O)C1=C(C)NC(C)=C(C(=O)OC(C)(C)CN(C)CCC(c2ccccc2)c2ccccc2)C1c1cccc([N+](=O)[O-])c1 (centres unmarked) | 92.3 |
| C/C(O)=C(\C#N)C(=O)Nc1ccc(C(F)(F)F)cc1 | 82 |
| CN(c1nccc(=O)[nH]1)C1CCN(c2nc3ccccc3n2Cc2ccc(F)cc2)CC1 | 57.6 |

Set 3 — observed: cell-free assay; technique: competition with immobilised ligand; concentration: 1 µM
SMILES: O=C(Nc1cnc(Oc2ccc(F)cc2)nc1)N1CCc2ncccc2[C@@H]1c1ccc(F)cc1
| target | remaining binding [%] |
| --- | --- |
| ACVR1 (Homo sapiens, UniProt Q04771) | 97 |
| CLK3 (Homo sapiens, UniProt P49761) | 88 |
| MAP2K3 (Homo sapiens, UniProt P46734) | 76 |
| GRK7 (Homo sapiens, UniProt Q8WTQ7) | 100 |
| Tyrosine-protein kinase ABL1, phosphorylated (ABL1, Homo sapiens, UniProt P00519, T315I) | 77 |
| Ribosomal protein S6 kinase alpha-5, N-terminal kinase domain (RPS6KA5, Homo sapiens, UniProt O75582) | 85 |
| PIK3CA (Homo sapiens, UniProt P42336, C420R) | 100 |
| BTK (Homo sapiens, UniProt Q06187) | 92 |
| MAP3K10 (Homo sapiens, UniProt Q02779) | 77 |
| TIE1 (Homo sapiens, UniProt P35590) | 88 |
| Tyrosine-protein kinase JAK1, JH1 (JAK1, Homo sapiens, UniProt P23458) | 86 |
| SIK3 (Homo sapiens, UniProt Q9Y2K2) | 86 |
| RIOK2 (Homo sapiens, UniProt Q9BVS4) | 96 |
| PIM3 (Homo sapiens, UniProt Q86V86) | 82 |
| AXL (Homo sapiens, UniProt P30530) | 76 |
| IRAK4 (Homo sapiens, UniProt Q9NWZ3) | 95 |

Set 4 — observed: target engagement in cells; technique: BRET
Target: GTPase KRas (KRAS, Homo sapiens, UniProt P01116)
| Structure (SMILES) | IC50 |
| --- | --- |
| CCC(=O)N1CCN(c2nc(OC[C@@H]3CCCN3C)nc3c2CCN(c2cccc4cccc(Cl)c24)C3)C[C@@H]1CC#N | 590 nM |
| CN1CCC[C@H]1COc1nc2c(c(N3CCN(S(C)(=O)=O)[C@@H](CC#N)C3)n1)CCN(c1cccc3cccc(Cl)c13)C2 | 410 nM |
| CC(=O)N1CCN(c2nc(OC[C@@H]3CCCN3C)nc3c2CCN(c2cccc4cccc(Cl)c24)C3)C[C@@H]1CC#N | 750 nM |

For quick reference, copied from above (set 1):
| target | remaining activity |
| --- | --- |
| CSNK1E (Homo sapiens, UniProt P49674) | 92.4% |
| CAMKK1 (Homo sapiens, UniProt Q8N5S9) | 114% |
| SGK2 (Homo sapiens, UniProt Q9HBY8) | 90.5% |
| TYRO3 (Homo sapiens, UniProt Q06418) | 101% |
| PAK6 (Homo sapiens, UniProt Q9NQU5) | 92.4% |
| SRPK1 (Homo sapiens, UniProt Q96SB4) | 89.4% |
